Experimental data from different studies.
Compare with care: the assays were run in different laboratories. ± marks the error that the study gave.

`NCCONC(=O)[C@@H]1CC[C@@H]2CN1C(=O)N2OS(=O)(=O)O`: “adverse event incidence” 12.5% (measured: urinary leukocytes positive; healthy Chinese men; intravenous, 1 g, treatment-emergent).
For `Cc1cn(-c2cc(NC(=O)c3ccc(C)c(Nc4nccc(-c5cccnc5)n4)c3)cc(C(F)(F)F)c2)cn1`, “secondary depot absorption rate constant” read 0.14 h⁻¹ (population PK model, typical value; human, both sexes, plasma; oral).
For `Cc1cc(Nc2cc3ncccc3c(N[C@@H]3C[C@H]4CC[C@@H](C3)N4CCC#N)n2)n[nH]1`, “skin subcutaneous disorders incidence” read 17% (healthy human subjects; oral, 100 mg, 14 days, multiple ascending dose).
`Cc1ccc([C@@H]2O[C@H](CO)[C@@H](O)[C@H](O)[C@H]2O)cc1Cc1ccc(-c2ccc(F)cc2)s1` — result for “urinary calcium excretion change”: -42.8 mg (Japanese type 2 diabetes patients; 200 mg, day 4, 24 h urine collection; reference: baseline).
The Ctau of `C[C@@H]1CCO[C@H]2Cn3cc(C(=O)NCc4ccc(F)cc4F)c(=O)c(O)c3C(=O)N12` is reported as 1300 ng/mL (human, haemodialysis patients, plasma; oral, dose not given, 24 h, steady state, fixed-dose combination).
`COc1ccc2c(=O)n(C)c(-c3ccccc3)nc2c1` has a tissue/plasma ratio of 6.88 (Sprague-Dawley rat, male, kidney; oral, 30 mg/kg, 4 h; reference: kidney over plasma).
The logD of `CCOC(=O)N1C[C@@H](C2CCCC2)N[C@@H](c2ccc(-c3ccccc3)cc2)C1` is reported as over 4.7 (shake-flask, 1-octanol/buffer; pH 7.4).
`CC1(CNC(=O)c2ccc(-c3ccc(Br)cc3)cc2)NC(=O)NC1=O` (centres unmarked) gave a logD of 3.23 (octanol/buffer; pH 7.4).
`C=CCN1CC(=O)N2[C@@H](Cc3ccc(O)cc3F)C(=O)N(Cc3cccc(N4CC(N5CCN(CC)CC5)C4)n3)C[C@@H]2N1C(=O)NCc1ccccc1` gave a treatment-related diarrhoea of 0% (advanced solid tumour patients; oral, 20 mg twice daily, any grade, dose-escalation).
With `CCOC(=O)N1C[C@@H](c2cnc(-c3ccccc3)nc2)N[C@@H](c2ccc(-c3ccccc3)cc2)C1` the logD was over 4.7 (shake-flask, 1-octanol/buffer; pH 7.4).
For `NC[C@@]1(CC(=O)O)[C@@H]2CC[C@H]3C[C@@H]2[C@@H]1C3`, the unbound Cmax was 394 ng/mL (human, severe renal impairment, plasma; geometric mean).
`CCCCCN1C[C@H](O)[C@@H](O)[C@H](O)[C@@H]1CO`: “geometric mean brain concentration” 40 ng/g (LC-MS/MS; Hexb-/- mice, female, brain; 30 mg/kg/day).
`Cc1ccc([C@H]2N[C@H](c3ccc(C(C)(C)C)cc3)CO[C@@H]2C)cn1` has a logD of over 4.7 (shake-flask, 1-octanol/buffer; pH 7.4).
For `CCCCOC(=O)N1CCN(C(=O)[C@H](CP(=O)(O)O)NC(=O)c2cc(N3CC[C@H](OC)C3)nc(-c3ccccc3)n2)CC1`, “change from baseline” read -0.9 ± 4.6 U/L (measured: aspartate aminotransferase; human, serum; 16 mg, 24 h post-dose).
`C/C(O)=C(\C#N)C(=O)Nc1ccc(C(F)(F)F)cc1` has a blood/plasma ratio of 0.63 ± 0.2 (mouse (CD-1, female), whole blood; 50 µM, 120 min, 37 °C).
`c1ccc(CN2CCCN3CCN(Cc4ccccc4)CCCN(CC2)Cc2cccc(n2)C3)cc1` gave an intact complex of 98% (64Cu complex in rat plasma; 12 h, 37 °C).
With `CCOC(=O)c1c(NC(=O)CNC(C)C)sc2c1CCCCC2` the brain concentration was 177 ng/g (mice (male), brain; intraperitoneal, 5 mg/kg, 1 h).
`CCc1c2c(nc3ccc(OC(=O)N4CCC(N5CCCCC5)CC4)cc13)-c1cc3c(c(=O)n1C2)COC(=O)[C@]3(O)CC` gave a tissue concentration of 12400 ± 3290 ng/g (mouse Mrp2(−/−), intestine; intraperitoneal, 50 mg/kg, 24 h).
`Cc1cc(C)c(CNC(=O)c2cc(Cl)c3c(c2C)O[C@@](C)([C@H]2CC[C@H](N(C)C)CC2)O3)c(=O)[nH]1` — result for “grade ≥3 TEAE incidence”: 4.2% (viral enterocolitis, CTCAE v4.0; human, relapsed/refractory NHL; oral, 200 mg once daily, overall, onset after cycle 1 day 1).
`CC[C@H](C)[C@H](NC(=O)[C@H](Cc1ccccc1)NC(=O)[C@H](CCC(=O)O)NC(=O)[C@H](CCCCNC(=O)COCCOCCNC(=O)COCCOCCNC(=O)CC[C@H](NC(=O)CCCCCCCCCCCCCCCCC(=O)O)C(=O)O)NC(=O)[C@H](C)NC(=O)[C@H](C)NC(=O)[C@H](CCC(N)=O)NC(=O)CNC(=O)[C@H](CCC(=O)O)NC(=O)[C@H](CC(C)C)NC(=O)[C@H](Cc1ccc(O)cc1)NC(=O)[C@H](CO)NC(=O)[C@H](CO)NC(=O)[C@@H](NC(=O)[C@H](CC(=O)O)NC(=O)[C@H](CO)NC(=O)[C@@H](NC(=O)[C@H](Cc1ccccc1)NC(=O)[C@@H](NC(=O)CNC(=O)[C@H](CCC(=O)O)NC(=O)C(C)(C)NC(=O)[C@@H](N)Cc1cnc[nH]1)[C@@H](C)O)[C@@H](C)O)C(C)C)C(=O)N[C@@H](C)C(=O)N[C@@H](Cc1c[nH]c2ccccc12)C(=O)N[C@@H](CC(C)C)C(=O)N[C@H](C(=O)N[C@@H](CCCNC(=N)N)C(=O)NCC(=O)N[C@@H](CCCNC(=N)N)C(=O)NCC(=O)O)C(C)C` — result for “QTcF change from baseline”: -1.3 ms (12-lead Holter ECG; healthy humans; subcutaneous, 1.5 mg once weekly, 26 h, steady state; reference: placebo).
With `COc1nc(-c2cc(C)c(N[C@@H](C)c3cc(F)cc(F)c3)nn2)ccc1-n1cnc(C)c1` the brain concentration was 6760 ng/g (C57BL/6J mice, male, brain; oral, 25 mg/kg daily for 9 days, 4 h after last dose).
`C=CCn1c(=O)c2cnc(Nc3ccc(N4CCN(C)CC4)cc3)nc2n1-c1ccc2c(n1)[C@@](O)(CC)CC2` gave an AUC(0-24) of 21100 ng·h/mL (OVCAR-3, female NOD/SCID mouse xenograft, plasma; oral, 60 mg/kg once daily).
The half-life of `CCOc1c([C@H](C)n2nc(C)c3c(N)ncnc32)cc(Cl)c(F)c1[C@@H]1CNC(=O)C1` is reported as 9 ± 3.4 h (patients, monotherapy; oral, 20 mg once daily, cycle 1 day 15).
For `CCN1CCN(Cc2ccc(NC(=O)c3ccc(C)c(NC(=O)c4cncc(-c5cccs5)c4)c3)cc2C(F)(F)F)CC1`, “mean plasma concentration” read 139 ng/mL (LC-MS/MS; C57BL/6 mouse, plasma; intraperitoneal, 20 mg/kg single dose, 6 h).
`CC(C)Nc1ccnc(Nc2cccc(-c3ccccn3)c2)n1` has an efflux ratio of 2.99 (MDCKII-WT cells; 10 µM, pH 7.4; reference: Papp B-A over A-B).
`C=CC(=O)NC1CCN(c2ncc3ncnc(Nc4ccc(Oc5ccc6c(c5)ncn6C)c(C)c4)c3n2)CC1` has an AUC0-tz increase of about 26% (human, male, plasma; oral, 240 mg, fed; reference: fasted).
The CL of `C[C@H]1Oc2cc(cnc2N)-c2c(nn(C)c2C#N)CN(C)C(=O)c2ccc(F)cc21` is reported as 128 mL/min (population PK; severe renal impairment patients, plasma; oral, 100 mg once daily, cycle 1 day 15, steady state).
`CCOc1c([C@H](C)n2nc(C)c3c(N)ncnc32)cc(Cl)c(F)c1[C@@H]1CNC(=O)C1` — result for “stability relative error”: 7.3% (rat plasma; 5 ng/mL, three freeze-thaw cycles; reference: nominal concentration).
Under “subjects with TEAE”, `CC(C)(C(=O)N1CCOc2c(C#N)cncc2C1)C(F)F` is recorded as 0% (measured: vessel puncture site hypoaesthesia; healthy humans, both sexes; oral, 10 mg single dose).
The Cmax ratio of `Cc1nc2cccc(OCC(C)(C)C(=O)NC(C)C)c2c(N)c1C(=O)O` is reported as 0.62 (female Sprague-Dawley rat, plasma; dietary, 100 mg/kg/day; reference: day 90 over day 7).
Under “patients, drug-related Overweight TEAEs”, `CC(C)C[C@H](NC(=O)[C@@H](Cc1c[nH]c2ccccc12)NC(=O)[C@H](Cc1ccc(O)cc1)NC(=O)[C@H](CO)NC(=O)[C@H](Cc1c[nH]c2ccccc12)NC(=O)[C@H](Cc1c[nH]cn1)NC(=O)[C@@H]1CCC(=O)N1)C(=O)N[C@@H](CCCNC(=N)N)C(=O)N1CCC[C@H]1C(=O)NCC(N)=O` is recorded as 0% (Chinese CPP girls; intramuscular, 22.5 mg, 12 months, day 1, month 6).
`Cc1ccc(N(C)C(=O)/C=C/c2ccco2)cc1` gave a licking latency of 15.3 ± 0.4 s (hot plate test; mouse; oral, 30 mg/kg single dose, 30 min).
`Cc1nc2ccc(OCc3ccc(C(F)(F)F)cc3)cc2[nH]1` gave a tissue concentration of 4.1 ± 1.7 ng/g (Balb/c mouse, male, kidney; intravenous, 1 mg/kg, 72 h).
`C[C@@H](N)C1CCN(S(=O)(=O)c2cccc3cnccc23)CC1` — result for “participants with TEAEs”: 33.3% (healthy volunteers; 150 mg, fasted).
The membrane retention of `Fc1ccc(-c2nc(-c3c(F)cccc3F)[nH]c2-c2ccncc2)cc1` is reported as 82.9 ± 1.3% (PAMPA; 16 h).
`CCOC(=O)N1C[C@@H](c2ccc(C(F)(F)F)cc2)N[C@@H](c2ccc(N3CCCC3)cc2)C1` has a logD of over 4.7 (shake-flask, 1-octanol/buffer; pH 7.4).
`[O]=[Co].[O]=[Co][O][Co]=[O]`: “creatinine-corrected cobalt concentration” 0.0178 µg/µmol creatinine (rat, male, urine, 24-h collection; oral gavage, single, 300 mg/kg (220 mg Co/kg), day 3, vehicle 0.5% HPMC).
For `C[C@@H]1COCCN1c1cc(C2([S@](C)(=N)=O)CC2)nc(-c2cc[nH]c3nccc2-3)n1`, lymphocyte count read “no effect” (female BALB/c mice; dose not given, 48 h, together with: total body irradiation 6 Gy; reference: irradiation alone).
The CLint of `CN1CCN(c2cccc(-c3ccc4ncnc(Nc5ccc(Cl)c(C(F)(F)F)c5)c4c3)c2)CC1` is reported as under 3 µL/min/mg (human liver microsomes).
`COc1ncc(-c2nc3c(n2C(C)C)[C@H](c2ccc(Cl)cc2)N(c2cc(Cl)cn(C)c2=O)C3=O)c(OC)n1`: “AUC(0-t) geometric mean” 11700 ng·h/mL (human patients, plasma; oral, 100 mg, 0-24 h, high-dose arm, cycle 2 day 1).
Under “subjects with related abdominal pain”, `C[C@@H](Oc1ccc(S(C)(=O)=O)cc1C(=O)N1C[C@@H]2C[C@]2(c2cc(C(F)(F)F)on2)C1)C(F)(F)F` is recorded as 0% (human; oral plus intravenous microtracer, dose not given).
The freeze-thaw stability of `C[C@H](N[C@@H](CCc1ccccc1)C(=O)O)C(=O)N1[C@H](C(=O)O)C[C@H]2CCCC[C@@H]21` is reported as 97.6 ± 7.6% (human plasma; 300 pg/mL, 3 cycles at -20 °C; reference: nominal).
`O=C(Nc1nc2cccc(-c3ccc(CN4CCS(=O)(=O)CC4)cc3)n2n1)C1CC1`: “treatment-emergent adverse events” 0% (measured: rheumatoid arthritis; rheumatoid arthritis patients; oral, 300 mg once daily, 4 weeks, any relatedness).
`O=C1Nc2ccc3ncsc3c2/C1=C/Nc1ccc2c(c1)CS(=O)(=O)C2` has a logD of 2.65 (octanol/buffer; 67 µM, pH 7.4).

Repeated from above:
`[O]=[Co].[O]=[Co][O][Co]=[O]`: “creatinine-corrected cobalt concentration” 0.0178 µg/µmol creatinine (rat, male, urine, 24-h collection; oral gavage, single, 300 mg/kg (220 mg Co/kg), day 3, vehicle 0.5% HPMC).
For `C[C@@H]1COCCN1c1cc(C2([S@](C)(=N)=O)CC2)nc(-c2cc[nH]c3nccc2-3)n1`, lymphocyte count read “no effect” (female BALB/c mice; dose not given, 48 h, together with: total body irradiation 6 Gy; reference: irradiation alone).
